Measurements gathered from unrelated publications.
Numbered parts are unrelated; each lists some results of a single study. Substitutions count along the parent as printed.

Series 1
Target: Fragile X messenger ribonucleoprotein 1, C-terminal low-complexity region (Fmr1, Mus musculus, UniProt P35922)
Technique: RNA Bind-n-Seq
Molecule type: RNA
Sample: in vitro
Tested at: 200 nM
Notes: whole 134-nt RNA, ends assumed
With: 150 mM KCl
Baseline: input library
Direction: higher = stronger binding
Shared flanks, not repeated: GGGAGUUCUACAGUCCGACGAUC … UGGAAUUCUCGGGUGUCAAGG
`UUUCUCCAUUGCAGGAAGUUGGCAGUAUCAUCGGAAAGGUAAGACAAUUUCACUUCAACUUCAAUUACCAUUUAGUAAUUCUGGAUUGAA` gave a log2 enrichment of -0.939.
`AGGGAGGUGGAUUUUGUUUAUUUUUUUAGCUCAUUUCCAGGGGUGGGAAUUUUUUUUUAAUAUGUGUCAUGAAUAAAGUUGUUUUUGAAA` gave a log2 enrichment of 0.286.
`ACCAUGCAGGUGGGCAUCUUUGGGAAGUGGGGCAAGGGGGGGAUAGGGAGGGGGGUAACACUUUGGGAACAGGUGGUCCCAGGUCGUUAC` gave a log2 enrichment of 0.746.
`UGGGAGGUGGAUUUUGUUUAUUUUUUUAGCUCAUUCCCAGGGGUGGGAAUUUUUUUUUAAUAUGUGUCAUGAAUAAAGUUGUUUUUGAAA` has a log2 enrichment of -0.00764.
`AGUCCUGUGCUACACAUCGUAUGUACCGAAUCGGGGAAAAGGGAAAAGGGGAAAAGGAAAGUAUUAUGUUACGCCGUUCGGAUCUGCACU` has a log2 enrichment of 0.145.
For `CCUGUGCUACACAUCGUAUGUACCGAAUCGGGAAAAAAAGGAAAAAAAGGGGAAAAAAAGGAAAGUAUUAUGUUACGCCGUUCGGAUCUG`, the log2 enrichment was -0.964.

Series 2
Target: ABI1, truncated, D143A, DHFR fusion (Arabidopsis thaliana)
Technique: DHFR PCA, deep sequencing
Sample: yeast
Notes: methotrexate growth selection, single substitutions
With: (+)-ABA 0 µM
Baseline: wild-type fitted maximum
Direction: higher = stronger binding
Parent: PYL1, truncated, DHFR fusion (Arabidopsis thaliana); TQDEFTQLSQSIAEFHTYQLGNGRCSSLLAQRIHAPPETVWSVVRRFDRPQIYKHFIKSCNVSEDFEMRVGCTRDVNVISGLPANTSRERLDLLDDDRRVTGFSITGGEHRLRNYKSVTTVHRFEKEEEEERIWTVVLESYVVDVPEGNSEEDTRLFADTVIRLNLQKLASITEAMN
`R88Q`: “relative binding score” 33.7%.
Under “relative binding score”, `Q2D` is recorded as 28%.
Under “relative binding score”, `I52L` is recorded as 39.8%.
`T160A`: “relative binding score” 9.28%.
`S59E`: “relative binding score” 21.9%.
Under “relative binding score”, `A170D` is recorded as 3.67%.
For `V100Q`, “relative binding score” read -0.29%.
For `S11W`, “relative binding score” read 12.5%.
`H16V`: “relative binding score” -1.02%.

Series 3
Target: Sal-like protein 4, full length isoform A (SALL4, Homo sapiens, UniProt Q9UJQ4, residues 1-1053)
UniProt Q9UJQ4, sequence (whole entry, looked up): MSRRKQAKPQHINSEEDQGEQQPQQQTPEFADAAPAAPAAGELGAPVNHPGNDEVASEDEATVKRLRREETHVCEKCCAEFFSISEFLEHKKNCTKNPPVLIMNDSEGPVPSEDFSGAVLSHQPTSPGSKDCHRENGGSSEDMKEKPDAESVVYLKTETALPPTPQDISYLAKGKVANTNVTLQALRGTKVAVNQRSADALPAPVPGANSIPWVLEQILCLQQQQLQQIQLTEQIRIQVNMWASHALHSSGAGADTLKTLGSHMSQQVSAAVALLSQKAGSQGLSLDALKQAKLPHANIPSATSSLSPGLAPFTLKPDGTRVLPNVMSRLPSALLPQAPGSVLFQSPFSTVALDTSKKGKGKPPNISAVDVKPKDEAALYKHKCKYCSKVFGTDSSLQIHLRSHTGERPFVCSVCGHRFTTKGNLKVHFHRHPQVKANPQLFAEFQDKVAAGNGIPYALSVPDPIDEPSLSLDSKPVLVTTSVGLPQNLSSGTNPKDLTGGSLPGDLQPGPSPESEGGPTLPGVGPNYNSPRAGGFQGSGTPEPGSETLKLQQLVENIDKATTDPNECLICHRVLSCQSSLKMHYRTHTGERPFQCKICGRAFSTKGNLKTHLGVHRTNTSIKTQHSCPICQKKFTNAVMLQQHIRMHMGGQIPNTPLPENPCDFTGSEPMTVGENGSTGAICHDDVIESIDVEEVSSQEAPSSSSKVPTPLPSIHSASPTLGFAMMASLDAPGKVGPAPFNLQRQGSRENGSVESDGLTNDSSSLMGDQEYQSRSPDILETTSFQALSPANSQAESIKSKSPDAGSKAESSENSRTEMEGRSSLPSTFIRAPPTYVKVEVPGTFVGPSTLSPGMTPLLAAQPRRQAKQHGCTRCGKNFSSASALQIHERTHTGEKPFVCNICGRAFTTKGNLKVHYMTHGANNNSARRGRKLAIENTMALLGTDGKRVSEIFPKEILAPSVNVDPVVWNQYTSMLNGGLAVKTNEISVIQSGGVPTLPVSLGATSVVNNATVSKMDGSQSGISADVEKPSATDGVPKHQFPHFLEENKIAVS
Technique: universal PBM
Molecule type: double-stranded DNA, one strand shown
Sample: in vitro
Tested at: 600 nM
Notes: 8-mer, flanks averaged, mean of replicates
Direction: higher = stronger binding
`TCCTGCCA` has an E-score of -0.156.
The E-score of `ATCCAGTC` is reported as -0.0525.
`GCACCACC` gave an E-score of -0.317.
With `ACACTTCC` the E-score was -0.058.
The E-score of `CCACTAGC` is reported as -0.105.
With `GAGGGTCA` the E-score was -0.23.
`GCCTATAA` has an E-score of 0.205.
The E-score of `AACTAGTG` is reported as -0.0193.
The E-score of `GGGACTCA` is reported as -0.368.

Further values, each from its own experiment
Technique: cross-linking MS
Sample: cell fractions
`MT-CO2 (Homo sapiens, UniProt P00403)` — result for cross-linked residues: “E220 to K75” (COX6C (Homo sapiens, UniProt P09669); with: DMTMM).
`PDIA3 (Homo sapiens, UniProt P30101)`: cross-linked residues “E372 to E729” (PCDHB16 (Homo sapiens, UniProt Q9NRJ7); with: DHSO).

Repeated from above (series 2):
`R88Q`: “relative binding score” 33.7%.
Under “relative binding score”, `Q2D` is recorded as 28%.
Under “relative binding score”, `I52L` is recorded as 39.8%.
